Published values of several laboratories.
Lines come from different studies, so protocols differ. Several values in a cell are separate wells, animals, samples, runs or records. ± marks the error that the study gave. In brackets after ≈: the same amount, converted by molar mass.
Organism: Plasmodium falciparum

| Structure (SMILES) | assay | test system | setting | how to read | endpoint | value |
| --- | --- | --- | --- | --- | --- | --- |
| CC[C@H](C)[C@H](NC(=O)[C@H](Cc1ccccc1)NC(=O)[C@H](CC(C)C)NC(=O)[C@]1(C)CCCC=CCCC[C@](C)(NC(=O)[C@H](CC(C)C)NC(=O)[C@H](CCCCN)NC(=O)[C@H](CCC(N)=O)NC(=O)[C@H](CO)NC(=O)CNC(=O)CCNC(=O)c2ccc3c(c2)C(=O)OC32c3ccc(O)cc3Oc3cc(O)ccc32)C(=O)N[C@@H](CCC(N)=O)C(=O)N[C@@H](C)C(=O)N[C@@H](C)C(=O)N1)C(=O)NCC(=O)N[C@@H](CO)C(=O)N[C@@H](CCCCN)C(=O)N[C@@H](CC(C)C)C(=O)N[C@H](C(=O)N[C@H](C(N)=O)[C@@H](C)O)[C@@H](C)O | – | CS2 | 20 µM, 24 h, late-stage iRBC | – | parasitemia reduction | ~70% |
| COc1ccc2c(c1)[n+]([O-])c(C#N)c(-c1ccco1)[n+]2[O-] | – | K1 chloroquine-resistant | – | baseline: K1 IC50 over 3D7 IC50 | resistance index | 0.44 |
| Cc1[nH]c2ccccc2c1C1CCN(CC2CCC(NC(=O)/C=C/c3ccc(Cl)c(Cl)c3)CC2)CC1 (stereo not drawn) | – | 3D7 | 2.5 nM, 48 h | – | parasitaemia increase | 9.58% |
| CCCCN1C(=O)c2ccc3c4c(ccc(c24)C1=O)C(=O)N(CCNc1c2ccc(Cl)cc2nc2ccc(OC)cc12)C3=O | parasite growth, SYBR Green I fluorescence | W2 over 3D7 | – | baseline: IC50 W2 over IC50 3D7 | resistance index | 14.3 |
| N#Cc1c(-c2ccco2)[n+]([O-])c2ccccc2[n+]1[O-] | – | K1 chloroquine-resistant | – | baseline: K1 IC50 over 3D7 IC50 | resistance index | 0.84 |
| CCCCN=Cc1[nH]c(-c2ccc[nH]2)cc1OC | – | HepG2, D6 | – | baseline: HepG2 IC50 over D6 IC50 | selectivity index | 109 |
| N#Cc1c(-c2ccco2)[n+]([O-])c2ccc(Cl)cc2[n+]1[O-] | – | K1 chloroquine-resistant | – | baseline: K1 IC50 over 3D7 IC50 | resistance index | 0.69 |
| CN(C)CCCOc1ccc(C2Sc3ccccc3NC3=C2C(=O)c2ccccc23)cc1 (racemic) | growth, hypoxanthine uptake | Dd2 expressing yeast DHOD | – | – | EC50 | > 5000 nM |
| CC(C)N1CCCCC1C(=O)NC(Cc1ccc(-c2ccccc2)cc1)B(O)O (stereo not drawn) | parasite growth, flow cytometry | 3D7 | 72 h | – | LD50 | 11 nM |
| Cc1c(-c2ccc[nH]2)c[nH]c1C=NC12CC3CC(CC(C3)C1)C2 | parasite growth | 7G8, chloroquine-resistant | – | – | IC50 | > 2500 nM |
| O=c1[nH]c(=O)c2cccc(O)c2o1 | – | K1, multidrug-resistant | up to 10 µg/mL | – | antiplasmodial activity | inactive |
| COc1cc2ncnc(Nc3ccc(Oc4ccccc4)cc3)c2cc1OC | – | red blood cells, FVO | up to 60 µM, 72 h | – | merozoite invasion inhibition | no inhibition |
| CCC1=CC(=CNC23CC4CC(CC(C4)C2)C3)N=C1c1ccc[nH]1 | parasite growth | 7G8, chloroquine-resistant | – | – | IC50 | 90 nM |
| Cc1ccc(C(C)C)cc1.[Cl][Ru+].[O-]c1ccccc1C=NCCNc1ccnc2cc(Cl)ccc12 | parasite growth, pLDH | Dd2, chloroquine-resistant | – | baseline: IC50 Dd2 over IC50 D10 | resistance index | 18.6 and 18 |
| COC1=CC(c2ccc[nH]2)=NC1=Cc1[nH]c(Cc2ccc(Cl)cc2)cc1Cc1ccc(Cl)cc1 | parasite growth | Dd2, chloroquine-resistant | – | – | IC50 | 4.8 nM |
| Cc1c(-c2ccc(Cc3ccc(OC(F)(F)F)cc3)cc2)[nH]c2cccc(F)c2c1=O | – | HepG2, 3D7 | – | baseline: CC50 HepG2 over EC50 3D7 | selectivity ratio | > 625 |
| COC1=CC(c2ccc[nH]2)=NC1=CNC1CC1 | parasite growth | Dd2, chloroquine-resistant | – | – | IC50 | 2500 nM |
| O=C1C2=C(Nc3ccccc3SC2c2ccsc2)c2ccccc21 (racemic) | – | Dd2 expressing yeast DHOD | with: 0.05 nM proguanil | baseline: transgenic over parental Dd2 | fold resistance | 16.3 |
| CCC(C)C1NC(=O)C(Cc2ccccc2)NC(=O)C(CCCCCC(=O)C2CO2)NC(=O)C2CCCCN2C1=O (stereo not drawn) | – | Dd2 | 10 x EC50, 24 and 48 h exposure | – | time to parasite recrudescence | 3 days |
| CC1=CC(=CNC23CC4CC(CC(C4)C2)C3)N=C1c1ccc[nH]1 | parasite growth | 7G8, chloroquine-resistant | – | – | IC50 | 95 nM |
| C[C@H]1C(=O)O[C@@H]2O[C@@]3(C)CC[C@@H]4[C@@]2(OO3)[C@H]1CC[C@]4(C)O | parasite growth, SYBR Green I | Dd2 | – | – | MIC90 | 0.21 ± 0.0276 µM (≈ 0.0626 µg/mL) |
| COc1cc2c3c4c1Oc1cc5c(cc1O4)[C@H](Cc1ccc(OCCCN(C)C)c(c1)Oc1ccc(cc1)C[C@@H]3N(C)CC2)N(C)CC5 | – | NF54, early ring stage | 10 x IC50, 6 h, 0-6 h post-invasion, read at 72 h post-invasion | – | parasite survival | < 5% |
| CC1=CC(=CNC2CCCCCCC2)N=C1c1ccc[nH]1 | parasite growth | 7G8, chloroquine-resistant | – | – | IC50 | 1780 nM |
| O=C1C2=C(Nc3ccccc3SC2c2ccc(F)cc2)c2ccccc21 (racemic) | – | Dd2 expressing yeast DHOD | with: 5 nM proguanil | baseline: transgenic over parental Dd2 | fold resistance | 0.1 |
| CC1=CC(=CNC2CCCCCC2)N=C1c1ccc[nH]1 | parasite growth | Dd2, chloroquine-resistant | – | – | IC50 | > 2500 nM |
| O=C1C2=C(Nc3ccccc3SC2C2CC2)c2ccccc21 (racemic) | growth, hypoxanthine uptake | Dd2 expressing yeast DHOD | – | – | EC50 | > 5000 nM |
| CC[C@H](C)[C@H](NC(=O)[C@@H](NC(=O)[C@H](Cc1ccc(O)cc1)NC(=O)[C@H](CCCCN)NC(=O)[C@H](CCCCN)NC(=O)[C@H](CC(C)C)NC(=O)[C@H](CC(=O)O)NC(=O)[C@H](Cc1ccc(O)cc1)NC(=O)[C@H](CCC(N)=O)NC(=O)[C@H](CCCCN)NC(=O)[C@@H](NC(=O)[C@H](Cc1ccccc1)NC(=O)[C@H](CCCCN)NC(=O)[C@H](CCCCN)NC(=O)[C@H](Cc1c[nH]c2ccccc12)NC(=O)[C@H](CCCCN)NC(=O)[C@H](CCSC)NC(=O)[C@H](CCCNC(=N)N)NC(=O)[C@H](CCCNC(=N)N)NC(=O)[C@H](CC(N)=O)NC(=O)[C@H](CCC(N)=O)NC(=O)[C@H](Cc1ccccc1)NC(=O)[C@H](Cc1c[nH]c2ccccc12)NC(=O)[C@@H](NC(=O)[C@H](CCCCN)NC(=O)[C@@H](NC(=O)[C@H](CCC(N)=O)NC(=O)[C@@H](N)CCCNC(=N)N)[C@@H](C)CC)[C@@H](C)CC)[C@@H](C)CC)[C@@H](C)CC)C(=O)O | parasite growth | 3D7 | early trophozoite stage | – | EC90 | ~90000 nM |

Repeated from above:
| Structure (SMILES) | assay | test system | setting | how to read | endpoint | value |
| --- | --- | --- | --- | --- | --- | --- |
| CCC(C)C1NC(=O)C(Cc2ccccc2)NC(=O)C(CCCCCC(=O)C2CO2)NC(=O)C2CCCCN2C1=O (stereo not drawn) | – | Dd2 | 10 x EC50, 24 and 48 h exposure | – | time to parasite recrudescence | 3 days |
| CC1=CC(=CNC23CC4CC(CC(C4)C2)C3)N=C1c1ccc[nH]1 | parasite growth | 7G8, chloroquine-resistant | – | – | IC50 | 95 nM |
| C[C@H]1C(=O)O[C@@H]2O[C@@]3(C)CC[C@@H]4[C@@]2(OO3)[C@H]1CC[C@]4(C)O | parasite growth, SYBR Green I | Dd2 | – | – | MIC90 | 0.21 ± 0.0276 µM (≈ 0.0626 µg/mL) |
